{"data": "Measured values from different studies", "note": "Lines come from different studies, so protocols differ. “And” joins repeats or separate records; there may be more than shown. ± marks the error that the study gave."}
{"Compound": "C=CC(=O)N1CC2C(=O)N(CCN(C)C)c3c(c4cc(Cl)c(-c5c(O)cccc5F)nc4n(-c4c(C)ccnc4C(C)C)c3=O)N2CC1C (stereo not drawn)", "system": "SW837, mouse xenograft", "conditions": "oral, 10 mg/kg once daily", "quantity": "tumour regression", "result": "107%"}
{"Compound": "O=[N+]([O-])[O-].O=c1c(C=NN=C([S-])Nc2ccccc2)coc2ccccc12.[Cu+2].c1cnc2c(c1)ccc1cccnc12", "test": "DNA cleavage", "system": "supercoiled pUC19 DNA", "conditions": "100 µM, 4 h, 37 °C, no reducing agent, with: DNA 40 µM", "quantity": "nicked circular DNA form", "result": "19%"}
{"Compound": "CC1(C)CCC(CN2CCN(c3ccc(C(=O)NS(=O)(=O)c4ccc(NCC5CCOCC5)c([N+](=O)[O-])c4)c(Oc4cnc5[nH]ccc5c4)c3)CC2)=C(c2ccc(Cl)cc2)C1", "system": "mouse Maver1 xenograft", "conditions": "oral, 5 mg/kg once daily, day 14", "quantity": "tumour growth inhibition", "result": "38%"}
{"Compound": "CC(=O)[O-].O.O.[O-]c1ccc(Br)cc1C=NCCN1CCOCC1.[Zn+2]", "test": "nitric oxide scavenging", "conditions": "120 µM", "quantity": "inhibition", "result": "21.9%"}
{"Compound": "COc1cc(O)ccc1CCC(c1ccc(O)cc1)c1cc2c(c(C)c1O)OC(c1ccc(O)cc1)CC2 (mixture of isomers)", "system": "human blood", "conditions": "3 µM, with: A23187", "quantity": "PGD2 level", "result": "3 ± 2 pg/mL"}
{"Compound": "CN1CCCNC(=O)c2cccc(c2)C(=O)NCCCN(C)CCCNc2cccc3c2C(=O)c2cccc(c2C3=O)NCCC1", "system": "KSN/Slc nude mice, SAS xenograft", "conditions": "dose not given, day 8, 192 h", "quantity": "tumour volume", "result": "233 mm3 and 281 mm3 and 250 mm3 and 136 mm3"}
{"Compound": "COc1ccc(C(=O)CCc2cc(C(CCc3ccc(O)cc3OC)c3ccc(O)cc3)c(O)cc2OC)cc1 (racemic)", "system": "human blood", "conditions": "0.3 µM, with: A23187", "quantity": "5-HEPE level", "result": "110 ± 33 pg/mL"}
{"Compound": "COC1CN([C@H]2CC[C@H]([C@@]3(C)Oc4c(Cl)cc(C(=O)NCc5c(SC)cc(C)[nH]c5=O)c(C)c4O3)CC2)C1", "test": "RNA-seq, refers to: CFAP54 mouse homolog", "system": "mouse, HT-1376 xenograft, whole blood", "conditions": "dose not given", "scale": "baseline: vehicle", "quantity": "log2 fold change", "result": 0.219}
{"Compound": "CN1CCC[C@]1(C)/C=C/S(=O)(=O)NC(=O)Nc1c2c(cc3c1CCC3)CCC2", "system": "human, whole blood ex vivo", "conditions": "100 mg single dose, 3 h, single ascending dose, with: LPS and ATP", "quantity": "IL-18 inhibition", "result": "130%"}
